Measured values from different studies.
Several values in a cell are separate wells, animals, samples, runs or records. ± marks the error that the study gave.
Sequence of UniProt Q9Y2J8 (whole entry, looked up): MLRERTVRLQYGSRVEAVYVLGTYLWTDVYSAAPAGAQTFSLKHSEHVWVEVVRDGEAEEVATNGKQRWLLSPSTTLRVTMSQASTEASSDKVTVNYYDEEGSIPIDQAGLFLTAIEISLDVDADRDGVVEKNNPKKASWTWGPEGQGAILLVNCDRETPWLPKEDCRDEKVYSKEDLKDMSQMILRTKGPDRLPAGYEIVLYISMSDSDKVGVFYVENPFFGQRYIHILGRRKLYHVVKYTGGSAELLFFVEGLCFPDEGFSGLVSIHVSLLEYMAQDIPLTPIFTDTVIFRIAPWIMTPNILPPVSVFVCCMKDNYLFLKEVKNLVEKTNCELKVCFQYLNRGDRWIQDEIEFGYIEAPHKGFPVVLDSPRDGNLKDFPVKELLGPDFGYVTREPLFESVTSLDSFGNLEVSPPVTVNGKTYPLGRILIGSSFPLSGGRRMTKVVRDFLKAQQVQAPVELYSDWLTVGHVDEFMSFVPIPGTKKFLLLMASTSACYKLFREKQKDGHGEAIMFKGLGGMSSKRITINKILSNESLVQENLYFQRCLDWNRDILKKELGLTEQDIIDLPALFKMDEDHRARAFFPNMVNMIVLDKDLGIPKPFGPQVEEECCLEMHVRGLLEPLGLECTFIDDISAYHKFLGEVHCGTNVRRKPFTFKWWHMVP
Sequence of UniProt P54750 (whole entry, looked up): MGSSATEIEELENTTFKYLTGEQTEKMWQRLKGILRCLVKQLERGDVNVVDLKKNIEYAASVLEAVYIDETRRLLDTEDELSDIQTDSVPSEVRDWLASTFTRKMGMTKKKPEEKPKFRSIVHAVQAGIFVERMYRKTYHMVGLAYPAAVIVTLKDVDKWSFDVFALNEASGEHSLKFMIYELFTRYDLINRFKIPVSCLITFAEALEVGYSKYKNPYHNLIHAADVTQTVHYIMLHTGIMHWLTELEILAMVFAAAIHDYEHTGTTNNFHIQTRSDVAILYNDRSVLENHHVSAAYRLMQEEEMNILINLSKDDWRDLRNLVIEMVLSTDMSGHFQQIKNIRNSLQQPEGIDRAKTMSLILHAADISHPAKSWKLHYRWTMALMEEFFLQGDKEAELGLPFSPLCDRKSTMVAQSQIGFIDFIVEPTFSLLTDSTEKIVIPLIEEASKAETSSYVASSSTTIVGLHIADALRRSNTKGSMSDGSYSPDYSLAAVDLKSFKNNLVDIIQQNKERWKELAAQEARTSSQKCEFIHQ
Sequence of UniProt O42275 (whole entry, looked up): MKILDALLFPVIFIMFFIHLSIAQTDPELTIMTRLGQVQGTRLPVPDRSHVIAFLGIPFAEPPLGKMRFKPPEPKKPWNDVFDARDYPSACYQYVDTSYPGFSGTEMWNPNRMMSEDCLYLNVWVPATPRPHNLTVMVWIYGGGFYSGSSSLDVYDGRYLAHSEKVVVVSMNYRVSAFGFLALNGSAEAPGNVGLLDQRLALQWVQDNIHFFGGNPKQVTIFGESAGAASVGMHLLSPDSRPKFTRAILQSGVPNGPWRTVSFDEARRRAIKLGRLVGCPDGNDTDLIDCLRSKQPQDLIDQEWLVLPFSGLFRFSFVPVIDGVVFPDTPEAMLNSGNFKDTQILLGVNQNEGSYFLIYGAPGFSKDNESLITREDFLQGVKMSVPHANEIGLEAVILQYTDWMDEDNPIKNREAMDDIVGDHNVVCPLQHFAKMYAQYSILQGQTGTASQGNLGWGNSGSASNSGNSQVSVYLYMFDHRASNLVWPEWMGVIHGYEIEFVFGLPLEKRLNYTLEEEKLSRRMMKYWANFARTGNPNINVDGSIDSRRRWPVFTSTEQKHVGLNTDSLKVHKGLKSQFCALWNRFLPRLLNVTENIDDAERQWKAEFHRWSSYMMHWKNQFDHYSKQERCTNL
Sequence of UniProt P02708 (whole entry, looked up): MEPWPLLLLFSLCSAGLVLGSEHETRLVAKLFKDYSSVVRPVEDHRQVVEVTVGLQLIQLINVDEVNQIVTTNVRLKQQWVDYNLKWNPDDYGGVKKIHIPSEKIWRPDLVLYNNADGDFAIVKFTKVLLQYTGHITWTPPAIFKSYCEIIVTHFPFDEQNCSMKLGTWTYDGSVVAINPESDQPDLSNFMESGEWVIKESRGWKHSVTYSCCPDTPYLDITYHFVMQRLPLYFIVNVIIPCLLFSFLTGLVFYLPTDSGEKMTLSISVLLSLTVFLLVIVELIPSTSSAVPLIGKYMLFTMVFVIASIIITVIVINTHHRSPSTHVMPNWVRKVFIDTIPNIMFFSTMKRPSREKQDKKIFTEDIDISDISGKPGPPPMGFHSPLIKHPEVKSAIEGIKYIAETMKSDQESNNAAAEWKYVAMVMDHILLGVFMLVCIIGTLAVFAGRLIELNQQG
Sequence of UniProt P23458 (whole entry, looked up): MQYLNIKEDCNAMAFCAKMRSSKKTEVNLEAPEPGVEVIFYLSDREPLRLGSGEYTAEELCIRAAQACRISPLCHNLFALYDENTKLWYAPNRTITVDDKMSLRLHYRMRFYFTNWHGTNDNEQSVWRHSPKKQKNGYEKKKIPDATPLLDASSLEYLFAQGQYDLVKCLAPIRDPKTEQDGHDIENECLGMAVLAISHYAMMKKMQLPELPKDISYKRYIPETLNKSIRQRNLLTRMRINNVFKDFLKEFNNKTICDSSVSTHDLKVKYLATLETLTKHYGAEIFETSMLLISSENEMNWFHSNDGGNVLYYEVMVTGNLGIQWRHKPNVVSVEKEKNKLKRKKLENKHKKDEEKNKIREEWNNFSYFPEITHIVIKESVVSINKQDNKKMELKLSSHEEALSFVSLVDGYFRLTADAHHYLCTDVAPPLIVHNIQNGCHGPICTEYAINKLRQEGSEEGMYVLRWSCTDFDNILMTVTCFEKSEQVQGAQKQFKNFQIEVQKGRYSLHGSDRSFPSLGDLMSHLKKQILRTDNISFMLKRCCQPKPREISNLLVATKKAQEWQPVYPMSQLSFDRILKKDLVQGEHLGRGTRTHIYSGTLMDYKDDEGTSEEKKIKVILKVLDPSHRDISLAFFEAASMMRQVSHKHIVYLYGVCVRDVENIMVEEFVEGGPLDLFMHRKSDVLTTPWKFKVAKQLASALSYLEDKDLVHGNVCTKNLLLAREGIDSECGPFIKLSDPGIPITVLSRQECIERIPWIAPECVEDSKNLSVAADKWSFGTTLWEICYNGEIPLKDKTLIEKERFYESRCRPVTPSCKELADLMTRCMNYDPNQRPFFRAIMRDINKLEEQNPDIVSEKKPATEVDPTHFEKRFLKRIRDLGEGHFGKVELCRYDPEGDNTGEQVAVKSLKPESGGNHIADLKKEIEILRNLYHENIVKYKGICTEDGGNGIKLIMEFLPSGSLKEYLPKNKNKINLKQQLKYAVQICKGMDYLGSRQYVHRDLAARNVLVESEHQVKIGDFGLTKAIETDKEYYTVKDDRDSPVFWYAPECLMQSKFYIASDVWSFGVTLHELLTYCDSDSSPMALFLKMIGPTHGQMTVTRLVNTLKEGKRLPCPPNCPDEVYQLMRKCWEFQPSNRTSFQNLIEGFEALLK
Sequence of UniProt P36107 (whole entry, looked up): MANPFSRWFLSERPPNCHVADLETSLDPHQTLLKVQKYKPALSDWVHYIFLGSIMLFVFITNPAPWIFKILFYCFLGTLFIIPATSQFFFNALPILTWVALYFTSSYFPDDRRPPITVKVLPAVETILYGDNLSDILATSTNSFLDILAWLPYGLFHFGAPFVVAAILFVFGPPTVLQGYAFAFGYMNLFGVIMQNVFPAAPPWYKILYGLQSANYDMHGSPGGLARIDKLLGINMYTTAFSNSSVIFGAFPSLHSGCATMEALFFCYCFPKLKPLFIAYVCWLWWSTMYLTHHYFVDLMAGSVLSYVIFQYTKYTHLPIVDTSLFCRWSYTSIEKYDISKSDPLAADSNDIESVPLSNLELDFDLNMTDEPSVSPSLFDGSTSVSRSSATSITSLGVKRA
Sequence of UniProt Q06346 (whole entry, looked up): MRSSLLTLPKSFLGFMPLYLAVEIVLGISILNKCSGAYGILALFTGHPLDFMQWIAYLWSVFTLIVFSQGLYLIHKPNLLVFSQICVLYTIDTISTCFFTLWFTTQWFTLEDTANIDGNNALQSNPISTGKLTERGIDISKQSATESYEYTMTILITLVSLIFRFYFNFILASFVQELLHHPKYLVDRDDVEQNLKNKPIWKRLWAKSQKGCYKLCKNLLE
Sequence of UniProt P09769 (whole entry, looked up): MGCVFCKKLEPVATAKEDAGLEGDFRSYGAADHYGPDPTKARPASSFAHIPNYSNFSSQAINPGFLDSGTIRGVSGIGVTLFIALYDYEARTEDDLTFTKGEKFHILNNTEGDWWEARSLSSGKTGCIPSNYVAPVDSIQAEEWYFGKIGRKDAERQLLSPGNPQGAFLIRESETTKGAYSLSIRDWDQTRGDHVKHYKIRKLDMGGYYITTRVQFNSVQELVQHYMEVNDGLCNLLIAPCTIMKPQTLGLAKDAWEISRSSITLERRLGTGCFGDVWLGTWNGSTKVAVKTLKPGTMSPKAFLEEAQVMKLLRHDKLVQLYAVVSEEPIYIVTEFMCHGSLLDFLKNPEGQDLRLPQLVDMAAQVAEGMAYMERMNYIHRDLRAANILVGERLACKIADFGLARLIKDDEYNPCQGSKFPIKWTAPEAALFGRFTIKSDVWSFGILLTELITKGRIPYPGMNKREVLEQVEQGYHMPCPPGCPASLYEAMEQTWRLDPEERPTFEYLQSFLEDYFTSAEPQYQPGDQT
Sequence of UniProt P0A988 (whole entry, unmodified, looked up): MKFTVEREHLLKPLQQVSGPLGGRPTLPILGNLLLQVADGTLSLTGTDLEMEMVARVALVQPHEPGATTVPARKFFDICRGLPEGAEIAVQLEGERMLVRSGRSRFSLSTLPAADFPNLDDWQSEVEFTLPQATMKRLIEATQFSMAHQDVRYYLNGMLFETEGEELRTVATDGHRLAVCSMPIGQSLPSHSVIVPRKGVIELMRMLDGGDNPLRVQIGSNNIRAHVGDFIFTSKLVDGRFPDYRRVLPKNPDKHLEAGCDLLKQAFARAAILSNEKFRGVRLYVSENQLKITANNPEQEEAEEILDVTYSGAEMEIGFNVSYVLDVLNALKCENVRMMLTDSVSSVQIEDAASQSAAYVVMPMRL

`CC[C@@H](C)[C@@H]1NC(=O)[C@@H]2CCCN2C(=O)[C@H](Cc2ccccc2)N(C)C(=O)[C@H](Cc2ccccc2)NC(=O)[C@H](C(C)C)N(C)C(=O)[C@@H]([C@H](C)CC)OC(=O)[C@H](C(C)(C)O)N(C)C(=O)[C@H](CC(C)C)NC(=O)[C@H](C(C)C)N(C)C1=O` — result for “normalized IPC synthase activity”: 0 (AUR1/KEI1 (Saccharomyces cerevisiae, UniProt P36107+Q06346); enzyme activity, inhibitor; concentration not given; reference: DMSO).
`CC#CC(=O)NC[C@H](NC(=O)[C@H](CC1CCCCC1)NC(=O)[C@H](CCC(N)=O)NC(C)=O)C(=O)N[C@@H](CC(C)C)C(=O)N[C@@H](Cc1ccccc1)C(=O)O` gave a -TΔS of 6.9 kcal/mol (Beta sliding clamp (Escherichia coli, UniProt P0A988); binding, isothermal titration calorimetry; 37 °C).
For `COc1ccc(-c2csc(NN=C(C=Cc3ccc(Cl)cc3)C(=O)O)n2)cc1`, the selectivity index was 11.7 (Acetylcholinesterase (ache, Electrophorus electricus, UniProt O42275); Ellman; reference: IC50 BChE over IC50 AChE).
The inhibition of `CN(C)[C@H]1C[C@@]23CC[C@@]4(O2)C(=CC[C@]2(C)[C@@H](c5ccc6ccncc6c5)CC[C@H]24)C=C3[C@@H](O)[C@@H]1O` is reported as -0.2% (Serine/threonine-protein kinase VRK2 (VRK2, Homo sapiens, UniProt Q86Y07); ATP probe labelling, inhibitor, KiNativ profiling; 0.1 µM).
`Cc1ccc(N2CC3CCC(C2)N3C)cc1C(=O)N[C@H](C)c1cc(-c2cnn(C)c2)nc2ccccc12` has a remaining activity of 99.2% (Ubiquitin carboxyl-terminal hydrolase 7 (USP7, Homo sapiens, UniProt Q93009); enzyme activity; 10 µM).
For `CC(C)[C@H]1NC(=O)C[C@H]2/C=C/CCSSC[C@@H](NC1=O)C(=O)N[C@H](Cc1cccc3ccccc13)C(=O)NCC(=O)O2`, the inhibition was -2.8% (Tyrosine-protein kinase Fgr (FGR, Homo sapiens, UniProt P09769); enzyme activity, inhibitor; 10 µM).
`N[C@H](C(=O)N1CCCC1)C1CCN(c2nccc3c(-c4ncc(Cl)cc4Cl)cccc23)CC1` gave a melting temperature of 59.2 °C and 58.4 °C (Protein-arginine deiminase type-2 (PADI2, Homo sapiens, UniProt Q9Y2J8); thermal shift; 0.03013 µM).
The reactivity ratio of `C#CCCCCOc1ccc2c(c1)CCCN2C(=O)CCl` is reported as 1.02 (Dual specificity calcium/calmodulin-dependent 3',5'-cyclic nucleotide phosphodiesterase 1A (PDE1A, Homo sapiens, UniProt P54750); mass spectrometry profiling; H460 cell lysate; 100 µM over 10 µM, UniProt P54750; reference: high over low concentration).
With `F[B-](F)(F)c1cccc(/N=N/c2ccccc2I)c1.[K+]` the switching factor was 2.6 ± 0.4 (Chymotrypsinogen A (Bos taurus, UniProt P00766); enzyme activity, inhibitor; with: Suc-AAPF-AMC; reference: Ki cis over Ki trans).
`O=C(Cc1ccc(Cl)c(Cl)c1)N1CCN(C(=O)C2(O)CCCC2)[C@@H]2COC[C@H](N3CCCC3)[C@H]21` (single isomer, unassigned) gave an Emax of 31% (Kappa-type opioid receptor (OPRK1, Homo sapiens, UniProt P41145); β-arrestin-2 recruitment, agonist; U2OS; 1.5 h; reference: U-69593 maximal response).
`O=C(N[C@@H]1c2ccccc2C[C@H]1N1CCCC1)c1ccc(-c2ccnc3[nH]ccc23)nc1` has a remaining binding of 0% (Tyrosine-protein kinase JAK1, JH1 (JAK1, Homo sapiens, UniProt P23458); binding, competition with immobilised ligand; 3 µM).
`O=C1NC(=O)c2c1c1cc(F)c[n+]3c1c1c2c2cc(O)ccc2[n]1[Ru-4]312([N]=C=S)[S+]3CC[S+]1CC[S+]2CC3` (centres unmarked) has a remaining activity of 16% (Serine/threonine-protein kinase MARK1 (MARK1, Homo sapiens, UniProt Q9P0L2); enzyme activity; 100 nM, human enzyme, with: 10 µM ATP; reference: untreated).
`CC[C@H](C)[C@H](NC(=O)[C@H](CC(C)C)NC(=O)[C@H](CC(C)C)NC(=O)[C@H](CC(=O)O)NC(=O)[C@@H](NC(=O)[C@H](CCC(=O)O)NC(=O)[C@H](CCCCN)NC(=O)[C@H](Cc1ccc(O)cc1)NC(=O)[C@H](CCCCN)NC(=O)[C@H](Cc1c[nH]cn1)NC(=O)CNC(=O)CN)[C@@H](C)O)C(=O)N[C@@H](CC(C)C)C(=O)N[C@@H](Cc1ccccc1)C(=O)N[C@@H](CCCCN)C(=O)N[C@@H](CC(=O)O)C(=O)N[C@@H](CC(=O)O)C(=O)N[C@@H](Cc1ccc(O)cc1)C(=O)N[C@@H](Cc1ccccc1)C(=O)N[C@@H](C)C(=O)N[C@@H](CCCCN)C(=O)N[C@@H](CCCCN)C(=O)N[C@@H](CC(N)=O)C(=O)N[C@@H](CCC(=O)O)C(=O)N[C@@H](CCC(=O)O)C(=O)N[C@@H](CCCNC(=N)N)C(=O)N[C@@H](CCCCN)C(N)=O` gave a kcat/Km of 3500 M⁻¹ s⁻¹ (HCV IRES RNA; RNA cleavage; hepatitis C virus).
`CS(C)(=O)=Nc1ccc(-c2ccc(-c3nc4cc(O[C@@H]5CO[C@H]6[C@@H]5OC[C@H]6O)[nH]c4cc3F)cc2)cc1` has an inhibition of -18% (CHRNA1/CHRNG/CHRND (Homo sapiens, UniProt P02708+P07510+Q07001); antagonist radioligand binding; 10 µM).
